# Results gathered from unrelated publications.
# Each line is one published result; not all experiments were run side by side. Several values in a cell are separate wells, animals, samples, runs or records. Numbers after ± are the reported error.
Structure (SMILES),assay,test system,conditions,quantity,value
COc1cc2c(Oc3ccc4[nH]c(C)cc4c3F)ccnc2cc1OCC1(N)CC1,,paediatric recurrent refractory sarcoma,"concentration not given, whole group",grade 1 or 2 sinus tachycardia,11.8%
Cn1cncc1-c1c(F)cncc1NC(=O)c1c(N)nn2cc(F)cnc12,,human patients,"oral, 80 mg once daily, 21 days",dose-limiting toxicity anaemia,0%
COc1ccc(C[C@@H]2NC(=O)[C@H]([C@@H](C)O)NC(=O)[C@@H]3[C@@H]4CCN3C(=O)[C@@H]3Cc5cn(c6ccc(F)cc56)CCCCCCN(Cc5ccc(cc5)CCNC(=O)[C@]5(C)CCCN5C2=O)C(=O)CCC(=O)N[C@@H](C)C(=O)N[C@H](CNC(=O)CCCCC[N+](C)(C)C)C(=O)N[C@@H](Cc2cccc(c2)CNC(=O)CO4)C(=O)N3)cc1,item: Nausea,humans,"concentration not given, Study-001",participants with adverse event,2%
C[C@]1(O)C[C@@](N)(c2ccc(-c3nc4n(c3-c3ccccc3)COc3ccncc3-4)cc2)C1,,"human, advanced or metastatic solid tumours","20 mg once daily, phase I dose escalation",patients with Dyspnea TEAE,16.7%
Cn1ncc(-c2nc(N[C@H]3CC[C@H](N)CC3)ncc2Cl)c1CC1CC1,item: hypotension grade 3 or higher,human patients phase I,dose not given,adverse event incidence,13%
COC[C@]12CN(C)[C@@H]3[C@@H]4[C@H](OC)[C@H]1[C@@]3([C@@H](OC)C[C@H]2O)[C@@H]1C[C@@]2(O)[C@H](OC(=O)c3ccccc3)[C@@H]1[C@]4(OC(C)=O)[C@@H](O)[C@@H]2OC,,"Sprague-Dawley rat, plasma","oral, dose not given, with NADES in PCW extract",Tmax,0.833 ± 0.144 h
O=C(O)CCCOc1ccc(F)cc1-c1cc(-c2ccccc2C(F)(F)F)n(-c2ccccc2)n1,,female Crl:CD(SD) rats,"intravenous, 25 µg/kg, 14 d",RET,3.39% and 3.38% and 3.74% and 3.66% and 3.99%
COc1ccnc(C(=O)N[C@H]2COC(=O)[C@H](Cc3ccccc3)[C@@H](OC(=O)C(C)C)[C@H](C)OC2=O)c1OCOC(=O)C(C)C,,"Staffordshire loam sediment, aerobic dark",20 °C,DT50 whole system,0.34 days
COc1cc2c(cc1OC)CN(CCc1ccc(NC(=O)c3cccc4c(=O)c5cccc(OC)c5[nH]c34)cc1)CC2,,"CD-1 mouse, male, plasma","intraperitoneal, 0.3 mg/kg",half-life,7.28 h
O[C@H]1CCCN[C@@H]1CCCn1cnc2c(Cl)c(Cl)ccc21,,"healthy CYP2D6 intermediate metabolizers, plasma","oral, 150 mg",Cmax geometric LS mean,328 ng/mL
CC(C)C[C@H](NC(=O)[C@@H](NC(=O)[C@H](CCCNC(=N)N)NC(=O)[C@H](CCC(N)=O)NC(=O)[C@H](Cc1ccccc1)NC(=O)[C@H](Cc1ccc(O)cc1)NC(=O)[C@H](CC(N)=O)NC(=O)[C@H](Cc1c[nH]c2ccccc12)NC(=O)[C@@H](NC(=O)[C@H](CCCNC(=N)N)NC(=O)[C@H](CCCCN)NC(=O)[C@@H](N)Cc1ccccc1)C(C)C)C(C)C)C(=O)N[C@H](C(=O)N[C@@H](CCCCN)C(=O)N[C@@H](CCCCN)C(=O)N[C@@H](Cc1ccc(O)cc1)C(=O)N[C@@H](C)C(N)=O)C(C)C,reversed-phase UPLC,"C18 column, TFA",,elution acetonitrile content,45.1%
C[C@@H]1COCCN1c1cc([C@]2(O)C[C@H]3CC[C@@H](C2)O3)c2cnn(-c3cc[nH]n3)c2n1,,NOD-SCID tumour-bearing mice,"oral, 14 days, 2 days on 5 off weekly",MTD,30 mg/kg
CO[C@H]1C[C@@H]2CC[C@@H](C)[C@@](O)(O2)C(=O)C(=O)N2CCCC[C@H]2C(=O)O[C@H]([C@H](C)C[C@@H]2CC[C@@H](OC(=O)NCCOCCOCCOCCOCCOCCOCCOCCOCCC(=O)N3CCc4cc(Cn5nc(-c6ccc7oc(N)nc7c6)c6c(N)ncnc65)ccc4C3)[C@H](OC)C2)C[C@@H](O)[C@H](C)/C=C(\C)[C@@H](O)[C@@H](OC)C(=O)[C@H](C)C[C@H](C)/C=C/C=C/C=C/1C,,patients with advanced solid tumours,"intravenous, 16 mg weekly, any grade",diarrhoea incidence,25%
CC1(C)[C@H](C(=O)O[C@H](C#N)c2cccc(Oc3ccccc3)c2)[C@@H]1C=C(Br)Br,item: CYP2C19,"human, age 6 months, recombinant human CYP2C19",0.1 µM,enzyme contribution to clearance,0.37%

# Repeated from above:
Structure (SMILES),assay,test system,conditions,quantity,value
CC(C)C[C@H](NC(=O)[C@@H](NC(=O)[C@H](CCCNC(=N)N)NC(=O)[C@H](CCC(N)=O)NC(=O)[C@H](Cc1ccccc1)NC(=O)[C@H](Cc1ccc(O)cc1)NC(=O)[C@H](CC(N)=O)NC(=O)[C@H](Cc1c[nH]c2ccccc12)NC(=O)[C@@H](NC(=O)[C@H](CCCNC(=N)N)NC(=O)[C@H](CCCCN)NC(=O)[C@@H](N)Cc1ccccc1)C(C)C)C(C)C)C(=O)N[C@H](C(=O)N[C@@H](CCCCN)C(=O)N[C@@H](CCCCN)C(=O)N[C@@H](Cc1ccc(O)cc1)C(=O)N[C@@H](C)C(N)=O)C(C)C,reversed-phase UPLC,"C18 column, TFA",,elution acetonitrile content,45.1%
